Assay results gathered from unrelated publications.
Each line is one published result; not all experiments were run side by side. ± marks the error that the study gave.

O=C1c2ccc(O)cc2OC1(O)Cc1ccc(O)c(O)c1 (centres unmarked)  selectivity ratio (MRC5 over HL-60; cytotoxicity, MTT; 72 h; relative to: IC50 MRC5 over IC50 HL-60): > 9.41
COc1cc(CNC(=O)C[C@H](C)CCC=C(C)C)ccc1O  growth percent (SF-268 CNS cancer cells; SRB; 10 µM, 48 h): 77%
Cc1nn(-c2ccc(S(=O)(=O)N[C@H](CO)CC(C)C)cc2)c2nn3nnnc3nc12  necrotic cells (HT-29; PI/Hoechst staining; 2 µM, 24 h): 26.5 ± 0.7%
CSC(=NN=C(C)c1ccc(S(=O)(=O)N2CCC(C)CC2)cc1)N(C)C  necrotic cells (HepG2; annexin V/PI staining; IC50, 72 h): 3.12%
C=CC(=O)Nc1cc(Nc2nccc(-c3c(-c4cccc(OC)c4)n(C)c4ccccc34)n2)c(OC)cc1N(C)CCN(C)C  protein level (H1975; Western blot, item: Bcl-2; concentration not given, 24 h): decreased
COc1cc(CNC(=O)C[C@H](C)CCC=C(C)C)ccc1OCc1cn(-c2ccc(Cl)cc2Cl)nn1  growth percent (SF-295 CNS cancer cells; SRB; 10 µM, 48 h): 41.8%
COC1C=CC=C(C)C(=O)NC2=CC(=O)C(NCCN(C)C)=C(CC(C)CC(OC)C(O)C(C)C=C(C)C1OC(N)=O)C2=O (centres unmarked)  protein level (Rh30; western blot, item: PAX3-FOXO1; concentration not given, 24 h): decreased
CCC(=C(c1ccc(Cl)cc1)c1ccc(OCCN2CCCCCC2)cc1)c1ccccc1  growth inhibition (NCI-60 tumour cell lines; 10 µM, mean over cell lines): 22.7%
CO[C@@H]1[C@H](N(C)C(=O)c2ccccc2)C[C@H]2O[C@]1(C)n1c3ccccc3c3c4c(c5c6ccccc6n2c5c31)C(=O)NC4  viable CD19+ B cells (CLL patient B cells; flow cytometry; human; 100 nM; relative to: untreated): 17%
CC(Cc1ccc(Cl)cc1)=C(c1ccc(Cl)cc1)c1ccc(OCCN2CCCCCC2)cc1  growth inhibition (NCI-60 tumour cell lines; 10 µM, mean over cell lines): 17%
COc1cc(CNC(=O)C[C@H](C)CCC=C(C)C)ccc1OCc1cn(-c2ccc(C#N)cc2)nn1  growth percent (Malme-3M melanoma cells; SRB; 10 µM, 48 h): 75.4%
O=Cc1c(O)ccc2ccccc12  log2 fold change (HUVEC; RNA sequencing, item: TYMS; 75 µM, 24 h; relative to: DMSO): -2.92
COc1cc(CNC(=O)C[C@H](C)CCC=C(C)C)ccc1OCc1cn(-c2cccc([N+](=O)[O-])c2)nn1  growth percent (Malme-3M melanoma cells; SRB; 10 µM, 48 h): 71.4%
Cc1ccc(-c2cn([C@@H]3O[C@H](CO)[C@@H](O)[C@H]3O)c3ncnc(N)c23)cc1Cl  EC50 (HEK; cytotoxicity): > 200 µM
COc1cc(CNC(=O)C[C@H](C)CCC=C(C)C)ccc1OCc1cn(-c2ccc(F)cc2)nn1  growth percent (Malme-3M melanoma cells; SRB; 10 µM, 48 h): 96%
Cc1cc(O)c2c(C(=O)[O-])[n+]3n(c2c1)CCCC3  glucose consumption (HepG2, palmitic acid-induced insulin resistance; 12.5 µM, 24 h): 9.01 ± 0.5 mM
[Cl][Pt-]1([Cl])[S]C(Nc2ccccc2)=N[N+]1=Cc1ccc(-c2ccccc2)s1  cytotoxic concentration (HEL human lung fibroblasts; altered cell morphology, microscopy; confluent cultures): 100 µM
CC[C@H](C)[C@H](NC(=O)[C@@H](NC(=O)C(C)(C)N)C(C)C)C(=O)N[C@@H](C)C(N)=O  viability (PC-12; Aβ42-induced neurotoxicity, inhibitor, MTT; concentration not given, 6 h, 37 °C, peptide to Aβ42 1:1, with: Aβ42 2 µM; relative to: untreated cells): 100%
CC(C)=C1CC[C@]2(COC(=O)c3ccccc3)[C@@H](OC(=O)c3ccccc3)/C=C(\C)CC[C@@H]3O[C@@]3(C)C[C@@H](OC(=O)c3cccnc3)[C@@H]12  glucose consumption (HepG2, palmitic acid-induced insulin resistance; 15 µM, 24 h): 8.56 ± 0.58 mM
COc1cc(CNC(=O)C[C@H](C)CCC=C(C)C)ccc1OCc1cn(-c2ccc(Br)cc2)nn1  growth percent (SF-295 CNS cancer cells; SRB; 10 µM, 48 h): 63.2%

Repeated from above:
CCC(=C(c1ccc(Cl)cc1)c1ccc(OCCN2CCCCCC2)cc1)c1ccccc1  growth inhibition (NCI-60 tumour cell lines; 10 µM, mean over cell lines): 22.7%
CO[C@@H]1[C@H](N(C)C(=O)c2ccccc2)C[C@H]2O[C@]1(C)n1c3ccccc3c3c4c(c5c6ccccc6n2c5c31)C(=O)NC4  viable CD19+ B cells (CLL patient B cells; flow cytometry; human; 100 nM; relative to: untreated): 17%
CSC(=NN=C(C)c1ccc(S(=O)(=O)N2CCC(C)CC2)cc1)N(C)C  necrotic cells (HepG2; annexin V/PI staining; IC50, 72 h): 3.12%
